Assay results from different studies.
Each numbered part is a random draw from the data of one study; scales do not carry over between parts. Positions count from the first letter of the parent shown.

Set 1 — target: CCND2, cyclin fold, Cln2 fusion (human); technique: yeast growth competition, sequencing; matrix: yeast; setting: weak parent motif; baseline: not given; direction: higher = stronger binding
Parent: RB1 docking peptide (human); PKPLKKLRFDIEG
Variant | normalised enrichment score
F9E | -0.241
L4W | 0.126
K6L | 0.456
L4P | 0.114
L4R | 0.25
K2N | 0.264
I11Q | -0.0916
I11L | 0.768
K6G | 0.255
K5L | -0.0382
F9I | 0.247
R8Q | -0.0565
P3T | 0.161
G13Y | -0.68
L7C | 0.474
K6I | 0.216
K2D | -0.0733
L7A | 0.425
R8Y | 0.136
I11C | 0.301
G13M | 0.282
E12Q | 0.0423
R8H | 0.176
K5I | 0.193

Set 2 — technique: DHFR PCA, deep sequencing; matrix: yeast; added: (+)-ABA 17 µM; baseline: wild-type fitted maximum; direction: higher = stronger binding
Target: ABI1, truncated, D143A, DHFR fusion (Arabidopsis thaliana)
Setting: methotrexate growth selection, single substitutions
Parent: PYL1, truncated, DHFR fusion (Arabidopsis thaliana); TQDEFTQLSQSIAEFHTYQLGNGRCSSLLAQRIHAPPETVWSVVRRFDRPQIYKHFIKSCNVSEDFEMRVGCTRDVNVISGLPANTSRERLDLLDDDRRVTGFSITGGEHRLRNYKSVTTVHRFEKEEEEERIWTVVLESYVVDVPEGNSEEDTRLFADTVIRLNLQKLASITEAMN
Variant | relative binding score [%]
S104I | 12.8
Q2V | 87.6
I12H | 9.08
R113A | 88.8
G107S | 54.8
H55I | 87.2
Y18Q | 62.4
L91K | -4.37
E64N | 86.4
L8M | 71.8
N114F | 1.45
R45L | -5.79
R132E | 111
R111K | 71
V161C | 44.7
V76D | -12
Q51V | 1.23
V78H | 11.7
E151I | 87.4
P37I | 65.4
A175T | 89.2

Set 3 — technique: RNA Bind-n-Seq; molecule type: RNA; matrix: in vitro; concentration: not given; baseline: input RNA pool; direction: higher = stronger binding
Target: RING finger protein unkempt homolog, zinc fingers 1-6, GST-SBP tag (UNK, Homo sapiens, UniProt Q9C0B0, residues 30-357)
Setting: RNA with constant flanks, human and mouse sites, ends assumed
Constant ends, left off below: GGGAGUUCUACAGUCCGACGAUC … CAACAGAGGAUUGAGCAUCA
Construct (chain): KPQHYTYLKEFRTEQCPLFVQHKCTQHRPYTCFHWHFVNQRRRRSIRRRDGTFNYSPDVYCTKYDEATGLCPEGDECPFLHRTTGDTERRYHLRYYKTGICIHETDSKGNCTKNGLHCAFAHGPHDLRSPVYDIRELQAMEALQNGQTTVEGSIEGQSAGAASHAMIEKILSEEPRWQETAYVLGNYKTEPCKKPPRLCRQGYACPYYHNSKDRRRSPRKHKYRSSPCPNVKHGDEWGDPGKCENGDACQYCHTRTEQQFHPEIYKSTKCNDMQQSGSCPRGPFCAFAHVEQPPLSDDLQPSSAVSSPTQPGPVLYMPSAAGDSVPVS
Strand | bound/input enrichment [ratio]
AAAAGUGAGGAUUUGGGGAAAUCAUCAAGAUCGAAAACAGAGAGAGAUGAUAGAUAUUGUAGCUACUCAAAACUUGAACGAGAUACUCGGUAUGUAUCUUCCCGAUGUCGGUCCGAAAGA | 0.124
UCCUUCUAUGAUGGGGAUUCCACCAGUACUGUUGCUGCUCUUCUCAUAGACUUCAAAAGCUCAUUGCUUCCUCACCUCCCAGUUCAUUUCCAUGGAUCAAGCAAUUUUCUGAUGAUUGCC | 0.43
GUGGUGACUGAGUUCCCUUUAUCAAACCCUUCAGUGGGCACAAAAUUGAGUGCUUGAUUUUAGGUUUUAUUUUUUUAUGAAUGUCCAAAUCUGUGUUUCCCCCUGCCCUCCCAGACUGUG | 9
GGUGAGAGUAUCAUGGUUGAACUCGCAGCUGGACCUUUUGGAAAUAAUGAAAAGUUGCCAGUAGUCAUCAGAGUACCAAAACUGAUCUAUUUCUCAGUAAUGAGUGUGUGCCUCAUGCCU | 0.167
GCCAGCCACUCGGAGCUAAUCCACAAUCUCCGCAAAAAUGGAAUCAUCAAGACAGAUAAAGUAUUUGAAGUGAUGCUGGCUACAGACCGCUCCCACUAUGCAAAAUGUAACCCAUACAUG | 0.135
UCGACUCCAGCGGCCCCGACAGCACGGAAGCAGCUGGAUAAAGAACAGGACCUUGCCUCAUAGUAUUCGAUCAGAUUCAGAAGAUAUCUGUUUAUUUACGAAGGAUGAACCCAAUUCAAC | 0.0738
UAUAUAUAUAUAUAUCAAAAAGCCAAAAUCUUUAUUUUUAUGCACCUAGAAUAUUUUAAAUAGUUCUCAAUAUUAAAAAGUAUGAGUUGUAAGUAAUCUUGCCAAAAGUGAGCGGGUUAG | 35.4
UAUUAGUGUUGUACCAGCCUAUUAACCUCUUGUCUGUGCACAGCUUCAAAUGUUACCGUCUAGUUAGAUUUUUAUUUAAAAUAUGAAAAACUGCUUUUCCCAAGAUGUUUUUUAAAAACA | 146

Set 4 — target: ATF1, bZIP domain (human); technique: DHFR protein complementation; matrix: yeast; baseline: wild-type JUN-FOS pair; direction: higher = stronger binding
Setting: single substitutions, most at no-binding floor
Parent: JUN, bZIP domain (human); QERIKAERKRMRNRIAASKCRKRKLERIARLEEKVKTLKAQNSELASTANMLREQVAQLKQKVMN; partner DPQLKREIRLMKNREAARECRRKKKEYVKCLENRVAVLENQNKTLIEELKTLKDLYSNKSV
Variant | binding fitness [natural log]
K34M | -1.41
T37G | -1.5
K39C | -1.56
L59W | -1.59
T48S | -1.53
L52P | -1.55
R30L | -1.46
K34S | -1.54
E44S | -1.52
R53V | -1.42
S43Y | -1.4
S43N | -1.58
E33V | -1.53
E32Q | -1.49
K34E | -1.48
E54V | -1.52
E32P | -1.57
L31A | -1.49
L31W | -1.49
M51P | -1.47
V35M | -1.55
A29M | -1.48

Set 5 — technique: protein-binding microarray; molecule type: double-stranded DNA, one strand shown; matrix: in vitro; concentration: 0.8 µM; setting: whole 60-bp probe, no competitor; direction: higher = stronger binding; constant ends, left off below: … GTCTTGATTCGCTTGACGCTGCTG
Target: Centromere-binding protein 1, full length, N-terminal tag (CBF1, Saccharomyces cerevisiae, UniProt P17106, residues 1-351)
Sequence of UniProt P17106 (whole entry, looked up): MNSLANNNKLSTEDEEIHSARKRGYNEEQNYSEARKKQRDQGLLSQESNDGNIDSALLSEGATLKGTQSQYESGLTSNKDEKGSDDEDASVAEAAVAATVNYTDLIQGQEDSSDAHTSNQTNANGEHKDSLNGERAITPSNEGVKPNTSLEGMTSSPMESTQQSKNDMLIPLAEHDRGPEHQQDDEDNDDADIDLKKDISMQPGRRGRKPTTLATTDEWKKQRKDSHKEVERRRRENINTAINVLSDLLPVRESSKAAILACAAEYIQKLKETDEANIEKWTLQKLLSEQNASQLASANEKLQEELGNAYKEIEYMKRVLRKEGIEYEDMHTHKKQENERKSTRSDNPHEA
Strand | fluorescence intensity [a.u.]
CTAGATTTGCTGAGTCATGTTGTGGCTTTTCTTTTC | 559
CTAAGGAATGCGATGGAGGTGATGCTAGTGTGGTTC | 530
GAATTTAAGCGCTCTCGTGAGAGAATATCACTGTAG | 672
CTACAGTGGATCACCCACGTCATTTATCCGAAGTTC | 555
CTAGCTCCACCAGCTGATGTGTGCATTTTTTTTTTC | 531
CTATATATGTATAATCACGTAGATAATGTATTGTTC | 1150
GAACTTAGTAAGAGTCTCCTGTAGTTTTGCGTTTAG | 482
CTAAGGAGAAACAGTGGTCTGATGTGATAGGGATTC | 548
GAAAGGCAAAAAAGTTTCGTGACTGAACTTCTTTAG | 561
GAATGGCATTCTTATCTCGTGCTTTTATTAGTGTAG | 936
GAAATATTGGCCGCGCTGATGACGAACGACATTTAG | 504
CTAATATAGGGAATGCATGTGCACAATTGGTTTTTC | 614
CTAAACCTTCCCTAACACATGAAACTATTATTGTTC | 567
GAAAAGTAGATTCTCCTGATGACCCATTCATGATAG | 486
GAAAAATTATCAATTCTCCTGATCACTACTGGTTAG | 529
GAAACAAGAAGATAACATCAGAATGGCTTATCGTAG | 481
GAATTGTTCCAAAATATCGTGATATTTGAAAGTTAG | 644
GAAACACCGGGTTCTGATGTTATCACCTACTTTTAG | 500
GAATTTTACGTTAATGACGTCATGGTGGTATAGTAG | 570
GAATGCAATAGACAGCACGAGTCTTTGAAAAAGTAG | 752
CTAAAGTCTGGAAGAGAGGTGGTGGAATTTCCATTC | 482
CTAAAAATGAAGAAATGCGTGATCGGAAATTACTTC | 1070
CTACATCCCAAAAGTTAGGTGATGGAATCAATATTC | 496
CTATACTACCGGTCAGCTGTGGTTCTGTGTCTGTTC | 589
CTATAAAGCGTCCTTCTGCTGATGTGTTATTTGTTC | 532

Some of these lines once more (set 1):
Variant | normalised enrichment score
L4R | 0.25
K2N | 0.264
I11Q | -0.0916
I11L | 0.768
K6G | 0.255
K5L | -0.0382
F9I | 0.247
R8Q | -0.0565
P3T | 0.161
G13Y | -0.68
L7C | 0.474
K6I | 0.216
K2D | -0.0733
L7A | 0.425
R8Y | 0.136
I11C | 0.301
